Published values pooled from the literature.
Several values in a cell are separate wells, animals, samples, runs or records. Numbers after ± are the reported error. ≈ marks a conversion by molar mass, not a printed value.
Organism: Mycobacterium tuberculosis

| Structure (SMILES) | test | test system | setting | scale | quantity | value |
| --- | --- | --- | --- | --- | --- | --- |
| NC(=O)c1cc(-c2ccc(C(F)(F)F)nc2)ccc1OCCc1cccc(F)c1 | growth | H37Rv-LP | 120 h | – | IC90 | > 100000 nM |
| COc1ccc2c(=O)c(C)c(-c3ccc(N4CCCCC4)cc3)[nH]c2c1 | time-kill | H37Rv | concentration not given, 7 days | – | kill rate | 0.04 h⁻¹ |
| NC(=O)c1cc(-c2cncnc2)ccc1OCCc1cccc(F)c1 | growth | H37Rv-LP | 120 h | – | IC90 | > 100000 nM |
| COc1ccc2nccc(CC[C@H]3OC[C@H](NC(=O)c4ccc5c(c4)NC(=O)CO5)CO3)c2c1 | growth inhibition, checkerboard | H37Rv | added: pretomanid | – | FIC index | 1 |
| COC(=O)C(=O)[C@H](CC(C)C)NC(=O)[C@H](CCCCN)NC(=O)[C@H](Cc1ccccc1)NC(=O)OCc1ccccc1 | bacterial growth | THP-1 macrophages, Mtb-lux | 72 h | – | IC50 | 3300 ± 1100 nM |
| O=C(C=Cc1cccs1)N1CCN(Cc2ccc3c(c2)OCO3)CC1 | bacterial growth, inhibitor | mmpL3-TetON | – | – | IC50 | 790 nM |
| Cc1nc2ccc(Br)cn2c1C(=O)NCc1ccc2oc(-c3ccc(Cl)cc3)nc2c1 | microbial growth | H37RV | – | – | MIC90 | 0.2 µM (≈ 0.0992 µg/mL) |
| CCc1ccc(C2CC(C(F)(F)F)n3ncc(C(=O)NCc4cccs4)c3N2)cc1 (stereo not shown) | microbial growth | – | – | – | IC50 | 1100 nM |
| CCC(CO)NCCNC(CC)CO.CCOc1cc(C=NNC(=O)c2ccncc2)ccc1OC(=O)CN1C(=O)CSC1=O | growth in combination | 192 | added: reference drug at 1/2 MIC | – | MIC | 0.5 µg/mL |
| Cc1cc(Oc2nc(N3CC[C@@H](c4ccncc4)C3)ncc2F)[nH]n1 | OD | H37Rv PurF CRISPRi knockdown | 0.0625 µM, added: anhydrotetracycline low | – | normalised growth | 4% and 5% |
| CN1CCN(c2ccc(C(F)(F)F)cc2NC(=O)c2ccccn2)CC1 | microbial growth | – | – | – | IC50 | 34100 nM |
| Cc1ccccc1/C=C/C(=O)N[C@H]1COC(=O)[C@H](CC(=O)O)NC(=O)[C@H]([C@@H](O)C(=O)c2ccccc2N)NC(=O)[C@@H](Cc2ccccc2)NC(=O)[C@@H](NC(=O)[C@@H](Cc2ccccc2)NC(=O)CN)[C@@H](C)OC1=O | – | mc2 6230 | 5 days, 37 °C | – | MIC50 | inactive |
| Cc1occc1C(=O)Nc1nc(-c2ccccn2)nc2ccsc12 | microbial growth | – | – | – | IC50 | 1390 nM |
| CCOc1cc(C=NNC(=O)c2cccnc2)ccc1OC(=O)CN1C(=O)CSC1=O.NNC(=O)c1ccncc1 | growth in combination | 192 | added: reference drug at 1/2 MIC | – | MIC | 0.0312 µg/mL |
| Cc1nc2cc(Br)ccn2c1C(=O)NCc1ccc2oc(-c3ccc(Cl)cc3)nc2c1 | microbial growth | H37RV | – | – | MIC90 | 10 µM (≈ 4.96 µg/mL) |
| COc1ccc2ncc(F)c(C[C@H](O)[C@H]3OC[C@H](NCc4ccc5c(n4)NC(=O)CO5)CO3)c2c1 | growth inhibition, checkerboard | H37Rv | added: pretomanid | – | FIC index | 1 |
| NNC(=O)c1ccncc1.O=C(CN1C(=O)CSC1=O)Oc1ccc(/C=N/NC(=O)c2ccccn2)cc1Br | two-drug checkerboard | H37Rv | concentration not given, unit not given | lower means more synergy | FICI | 1.5 |

| Structure (SMILES) | test | test system | setting | scale | quantity | value |
| --- | --- | --- | --- | --- | --- | --- |
| Clc1ccc(Nc2nc(-c3ccccn3)cs2)nc1 | microbial growth | – | – | – | IC50 | 2320 nM |
| NC(=O)c1cc(C(F)F)ccc1OCCc1cccc(F)c1 | – | H37Rv-LP | – | relative to: HepG2 CC50 over Mtb IC90 | selectivity index | 4 |
| CCc1nc2ccc(Br)cn2c1C(=O)NCc1ccc2oc(-c3ccc(Cl)cc3)nc2c1 | microbial growth | H37RV | – | – | MIC90 | 0.2 µM (≈ 0.102 µg/mL) |
| CCOc1cc(/C=N/NC(=S)Nc2cccc(Cl)c2)ccc1OC(=O)CN1C(=O)CSC1=O | microbial growth, resazurin | H37RV | – | – | MIC | 31.6 µM |
| Cc1cccc(-c2nc(Nc3ccncn3)c3sccc3n2)n1 | bacterial growth, inhibitor | mmpL3-TetON | – | – | IC50 | 960 nM |
| NC(=O)c1cc(-c2ccsc2)ccc1OCCc1cc(F)cc(F)c1 | growth | H37Rv-LP | 120 h | – | IC90 | 130 ± 30 nM |
| CCc1nc2cc(Br)ccn2c1C(=O)NCc1ccc2oc(-c3ccc(OC(F)(F)F)cc3)nc2c1 | microbial growth | H37RV | – | – | MIC90 | > 10 µM |
| Cc1nc(=O)c2cc(CN(C)c3ccc(C(=O)NCc4cccc(C(=O)O)c4)s3)ccc2[nH]1 | bacterial growth, inhibitor | H37Rv wild type | – | – | MIC90 | > 100 µM |
| CCc1ccc(CN2CCC3(CC2)OCCc2sccc23)s1 | bacterial growth, inhibitor | mmpL3-TetON | – | – | IC50 | 940 nM |
| NC(=O)c1cc(-c2cccnc2)ccc1OCCc1cccc(F)c1 | growth | H37Rv-LP | 120 h | – | IC90 | 7500 ± 2900 nM |
| COc1cc(C=NNC(=O)c2ccncc2)ccc1OC(=O)CN1C(=O)CSC1=O.NNC(=O)c1ccncc1 | two-drug checkerboard | H37Rv | concentration not given, unit not given | lower means more synergy | FICI | 2 |
| CCc1nc2cc(C(F)(F)F)ccn2c1C(=O)NCc1ccc2oc(-c3ccc(OC(F)(F)F)cc3)nc2c1 | microbial growth | H37RV | – | – | MIC90 | > 25 µM |
| c1cc2c(s1)CCOC21CCN(Cc2ccc3c(c2)OCCO3)CC1 | microbial growth | – | – | – | IC50 | 590 nM |
| CCC(CO)NCCNC(CC)CO.CCOc1cc(C=NNC(=O)c2ccccn2)ccc1OC(=O)CN1C(=O)CSC1=O | two-drug checkerboard | H37Rv | concentration not given, unit not given | lower means more synergy | FICI | 2 |
| Cc1ccn2c(-c3csc(Nc4ccccn4)n3)c(C)nc2c1 | microbial growth | – | – | – | MIC50 | 7030 µM (≈ 2260 µg/mL) |
| Cc1nc2ccc(OC(F)(F)F)cn2c1C(=O)NCc1ccc2oc(-c3ccc(Cl)cc3)nc2c1 | microbial growth | H37RV | – | – | MIC90 | > 10 µM |
| NNC(=O)c1ccncc1.O=C(CN1C(=O)CSC1=O)Oc1ccc(C=NNC(=S)Nc2cccc(Cl)c2)cc1Cl | growth in combination | H37Rv | added: reference drug at 1/2 MIC | – | MIC | 0.0156 µg/mL |

Some of these lines once more:
| Structure (SMILES) | test | test system | setting | scale | quantity | value |
| --- | --- | --- | --- | --- | --- | --- |
| Cc1nc2ccc(Br)cn2c1C(=O)NCc1ccc2oc(-c3ccc(Cl)cc3)nc2c1 | microbial growth | H37RV | – | – | MIC90 | 0.2 µM (≈ 0.0992 µg/mL) |
| CCc1ccc(C2CC(C(F)(F)F)n3ncc(C(=O)NCc4cccs4)c3N2)cc1 (stereo not shown) | microbial growth | – | – | – | IC50 | 1100 nM |
| CCC(CO)NCCNC(CC)CO.CCOc1cc(C=NNC(=O)c2ccncc2)ccc1OC(=O)CN1C(=O)CSC1=O | growth in combination | 192 | added: reference drug at 1/2 MIC | – | MIC | 0.5 µg/mL |
| Cc1cc(Oc2nc(N3CC[C@@H](c4ccncc4)C3)ncc2F)[nH]n1 | OD | H37Rv PurF CRISPRi knockdown | 0.0625 µM, added: anhydrotetracycline low | – | normalised growth | 4% and 5% |
| CN1CCN(c2ccc(C(F)(F)F)cc2NC(=O)c2ccccn2)CC1 | microbial growth | – | – | – | IC50 | 34100 nM |
